Measurements gathered from unrelated publications.
mcmA: mcmA (Methylobacterium extorquens, UniProt C5AV67)
B1: CyaY 1-106 (Escherichia coli, UniProt P27838); chain MNDSEFHRLADQLWLTIEERLDDWDGDSDIDCEINGGVLTITFENGSKIIINRQEPLHQVWLATKQGGYHFDLKGDEWICDRSGETFWDLLEQAATQQAGETVSFR
B2: FBLN5 207-287 (Homo sapiens, UniProt Q9UBX5); chain DVNECATENPCVQTCVNTYGSFICRCDPGYELEEDGVHCSDMDECSFSEFLCQHECVNQPGTYFCSCPPGYILLDDNRSCQ
B3: Lef1 114-397 (Mus musculus, UniProt P27782); sequence looked up; chain MMPNMNSDPYMSNGSLSPPIPRTSNKVPVVQPSHAVHPLTPLITYSDEHFSPGSHPSHIPSDVNSKQGMSRHPPAPEIPTFYPLSPGGVGQITPPIGWQGQPVYPITGGFRQPYPSSLSGDTSMSRFSHHMIPGPPGPHTTGIPHPAIVTPQVKQEHPHTDSDLMHVKPQHEQRKEQEPKRPHIKKPLNAFMLYMKEMRANVVAECTLKESAAINQILGRRWHALSREEQAKYYELARKERQLHMQLYPGWSARDNYGKKKKRKREKLQESTSGTGPRMTAAYI
B4: rnj HA-tagged (Mycolicibacterium smegmatis, UniProt A0QVT2); chain MSAELAPPPPLAPGGLRVTALGGISEIGRNMTVFEHLGRLLIVDCGVLFPGHDEPGVDLILPDLRHIEDRLDEIEALVVTHAHEDHIGAIPFLLKLRPDIPVVGSKFTIALVREKCREHRLKPKFVEVAERQSSQHGVFECEYFAVNHSIPGCLAVAIHTGAGTVLHTGDIKLDQLPLDGRPTDLPGMSRLGDAGVDLFLCDSTNSEHPGVSPSESEVGPTLHRLIRGAEGRVIVACFASNVDRVQQIIDAAVALGRRVSFVGRSMVRNMGIARELGYLKVDDSDILDIAAAEMMPPDRVVLITTGTQGEPMAALSRMSRGEHRSITLTSGDLIILSSSLIPGNEEAVYGVIDSLSKIGARVVTNAQARVHVSGHAYAGELLFLYNGVRPRNVMPVHGTWRHLRANAALAASTGVPPENIVLAENGVSVDLVAGRASISGAVTVGKMFVDGLITGDVGDATLGERLILSSGFVSITVVVHRGTGRPAGPAHLISRGFSEDPKALEPVAQKVERELEALAADNVTDPTRIAQAVRRTVGKWVGETYRRQPMIVPTVIEI
B5: bfd 1-73 Y2F/C43S (Pseudomonas aeruginosa, UniProt Q9HY80); chain MFVCLCQGVTDNQIRDAIYEGCCSYREVREATGVGTQCGKCASLAKQVVRETLNDLQSAQPVPAFGTTAFVAA
B6: protein 1-329 G186S (Methylobacterium extorquens, UniProt C5AP93); chain MSATLPDMDTLRERLLAGDRAALARAITLAESRRADHRAAVRDLIDAVLPQTGRAIRVGITGVPGVGKSTTIDALGSLLTAAGHKVAVLAVDPSSTRTGGSILGDKTRMARLAIDRNAFIRPSPSSGTLGGVAAKTRETMLLCEAAGFDVILVETVGVGQSETAVADLTDFFLVLMLPGAGDELQSIKKGILELADMIAVNKADDGDGERRASAAASEYRAALHILTPPSATWTPPVVTISGLHGKGLDSLWSRIEDHRSKLTATGEIAGKRREQDVKWMWALVHERLHQRLVGSAEVRQATAEAERAVAGGEHSPAAGADAIATLIGL
B7: protein 1-329 D182A (Methylobacterium extorquens, UniProt C5AP93); chain MSATLPDMDTLRERLLAGDRAALARAITLAESRRADHRAAVRDLIDAVLPQTGRAIRVGITGVPGVGKSTTIDALGSLLTAAGHKVAVLAVDPSSTRTGGSILGDKTRMARLAIDRNAFIRPSPSSGTLGGVAAKTRETMLLCEAAGFDVILVETVGVGQSETAVADLTDFFLVLMLPGAGAELQGIKKGILELADMIAVNKADDGDGERRASAAASEYRAALHILTPPSATWTPPVVTISGLHGKGLDSLWSRIEDHRSKLTATGEIAGKRREQDVKWMWALVHERLHQRLVGSAEVRQATAEAERAVAGGEHSPAAGADAIATLIGL
B8: bfd 1-73 C43S (Pseudomonas aeruginosa, UniProt Q9HY80); chain MYVCLCQGVTDNQIRDAIYEGCCSYREVREATGVGTQCGKCASLAKQVVRETLNDLQSAQPVPAFGTTAFVAA
B9: ISWI protein (Xenopus laevis, UniProt Q6DFM0); chain MSAESTEQQPDTVVKEEKEGKDPMEVDSGDGKKQEQDGEAVKEEAMEDGEPDDDDDDDDSLKSKEGNEMDPAYEKKRKTDRSNRFDYLLKQTELFAHFIQPAAQKTPTSPLKMKPGRPRLKKDEKQDLLSAGDNRHRRTEQEEDEELLTESSKTTNVCTRFEDSPAYVKSGKLRDYQVRGLNWLISLYENGINGILADEMGLGKTLQTISLLGYMKHYRSIPGPHMVLVPKSTLHNWMAEFKRWVPSLCAVCLIGDKDHRAAFVRDVLLPGEWDVCVTSYEMLIREKSVFKKFNWRYLVIDEAHRIKNEKSKLSEIVREFKTTNRLLLTGTPLQNNLHELWALLNFLLPDVFNSSEDFDSWFDTNNCLGDQKLVERLHMVLKPFLLRRIKADVEKSLKPKKEIKIYVGLSKMQREWYTKILMKDIDILNSSGKTDKMRLLNILMQLRKCCNHPYLFDGAEPGPPYTTDLHLATNSGKMMVLDKLLPKLKEQDSRVLIFSQMTRVLDILEDYCMWRNYEYCRLDGQTPHEERQESIIAYNAPGSTKFIFMLSTRAGGLGINLATADVVIIYDSDWNPQVDLQAMDRAHRIGQTKTVRVFRFITDNTVEERIVERAEMKLRLDSIVIQQGRLVDQNLNKLGKDEMLQMIRHGATHVFASKDSEITDEDINAILERGEKKTAEMNEKLSNMGESSLRNFTMDTESSVYNFEGEDYREKQKMAFTQWIEPPKRERKANYAVDAYFREALRVSEPKVPKAPRPPKQPNVQDFQFFPPRLFELLEKEILYYRKTIGYKVPRNPDLPNSAQVQKEEQLKIDEAESLNDEELEEKEKLLTQGFTNWNKRDFNQFIKANEKWGRDDIENIAREVEGKTPEEVIEYSAVFWERCNELQDIEKTMAQIERGEARIQRRISIKKALDTKIGRYKAPFHQLRISYGTNKGKNYTEEEDRFLICMLHKLGFDKENVYDELRQCIRNSPQFRFDWFLKSRTAMELQRRCNTLITLIERENLELEEKEKAEKKKRGPRPSSAQKRKVDGTPDGRGRKKKLKL

B1 (CyaY 1-106) — molecule per partner (IscS/IscU 1-404 (Escherichia coli); SAXS): 1
B2 (FBLN5 207-287) — binding (FBN1 31-489 (Homo sapiens, UniProt P35555); ELISA): binds
Epo-Fc Fc fusion, hinge-CH2-CH3, glycosylated (Mus musculus) — reticulocyte count (Fcgrt heavy chain (Mus musculus, UniProt Q61559); reticulocyte count, agonist; suckling mice; apparent, intragastric, dose response): 0.1 µg/animal
IgG Fc Fc (Homo sapiens) — relative binding (MUC16 fragment; ELISA; baseline: whole IgG, higher = more binding): 60%
pilE 29-end (Neisseria meningitidis) — interaction force (BSG 138-325 (Homo sapiens, UniProt P35613); AFM force spectroscopy; pH 7.0, room temperature, NaCl 150 mM): 62 pN
TBK1 fragment Y577A (Homo sapiens) — reduction of IFN-β reporter (STING1 (Homo sapiens, UniProt Q86WV6); IFN-β luciferase reporter; TBK1 KO HEK293T; added: cGAMP; baseline: wild-type TBK1, higher = more reduction): > 60%
B3 (Lef1 114-397) — reporter activation (Dlx2 (Mus musculus, UniProt P40764); Msx2-872 luciferase; CHO; higher = more activation): 62 fold
candidalysin (Candida albicans) — platelet counts (GP1BA (Homo sapiens, UniProt P07359); flow cytometry; MEG-01 megakaryocytes, releasates; 15 µM, 1 h, 37 °C, added: IgG isotype control; baseline: Mk-only control, higher = more platelets): 13800 counts
CFH mature (Homo sapiens, UniProt P08603) — relative binding (fhbp (Neisseria meningitidis, UniProt Q9JXV4); flow cytometry; live bacteria; added: Fab; baseline: FH alone, higher = more FH bound): 3.4 ratio
B4 (rnj HA-tagged) — binding (rne 330-1037 D694R/D738R (Mycolicibacterium smegmatis, UniProt A0R152); co-IP): binds
B5 (bfd 1-73 Y2F/C43S) — iron release rate (bfrB 1-158 (Pseudomonas aeruginosa, UniProt Q9HY79); Fe2+-bipyridine formation; added: NADPH 1 mM): 0.097 min⁻¹
B6 (protein 1-329 G186S) — kcat (mcmA; GTP hydrolysis; GAP activity, added: MCM 2-fold): 0.0035 s⁻¹
CAPZA fragment (Plasmodium berghei) — median filament length (ACTB (Bos taurus, UniProt P60712); phalloidin-stained actin filament length; 55 nM; baseline: actin alone, higher = longer filaments): 4.1 µm
RPN2 (Saccharomyces cerevisiae, UniProt P32565) — binding (20S proteasome core particle (Saccharomyces cerevisiae, UniProt P21243); cross-linking): binds
HIP-4.2 — IC50 (HLA-DRA/HLA-DRB1*04:01 (Homo sapiens); competition with biotinylated peptide, competitor, competition binding assay): 0.44 µM
RAN (UniProt P62826) — Ran:GTP protected (XPO1 (Homo sapiens, UniProt O14980); RanGAP protection; 330 nM, added: RanBP3 1 µM; higher = more protection): 25%
EDGGSWKYPDAFELSG (C3P-pd) — molecule per partner (MSN 1-345 (Homo sapiens, UniProt P26038); ITC; peptide): 1
ITGAV/ITGB3 mature (Homo sapiens) — cell adhesion (FN1 (Homo sapiens); adhesion to fibronectin; M21; baseline: no antibody or peptide, higher = more adhesion): 406000 cpm
B7 (protein 1-329 D182A) — kcat (mcmA; GTP hydrolysis; GAP activity, added: MCM 2-fold): 0.00833 s⁻¹
KKILLTPRRRQRLS (TERB1 643-656 (Homo sapiens, UniProt Q8NA31)) — binding (TERF1 TRFH domain 62-265 (Homo sapiens, UniProt P54274); crystal structure; peptide): binds
olig1 (Danio rerio) — mbp promoter activity (sox10 (Danio rerio, UniProt Q90XD1); luciferase reporter; Cos-7; added: Sox10; baseline: reporter plus Sox10 alone, higher = more activation): 2 fold
APOBEC3B (Homo sapiens, UniProt Q9UH17) — cMyc protein level (PFDN5 (Homo sapiens, UniProt Q99471-1); immunoblot; HEK293T; without MG132; baseline: cMyc alone, higher = more cMyc): 3.3 fold
B8 (bfd 1-73 C43S) — iron release rate (bfrB 1-158 E81A (Pseudomonas aeruginosa, UniProt Q9HY79); Fe2+-bipyridine formation; added: NADPH 1 mM): 0.031 min⁻¹
ALDOA (Oryctolagus cuniculus, UniProt P00883) — kd2 (TRAP C-terminal cytoplasmic tail (Plasmodium falciparum); SPR; two-state model): 0.000512 s⁻¹
B9 (ISWI protein) — subunits per oligomer (HTA1/HTB1/HHT1/HHF1 nucleosome, 601 DNA flanks (Saccharomyces cerevisiae); EMSA): 2 ISWI per nucleosome
HIP-4.40 — IC50 (HLA-DRA/HLA-DRB1*04:01 (Homo sapiens); competition with biotinylated peptide, competitor, competition binding assay): 2.4 µM
N-formyl-Met-Leu-Phe, N-formyl — pEC50 (FPR3 (Homo sapiens, UniProt P25089); aequorin luminescence, agonist; CHO-K1): < 6 pEC50

Some of these lines once more:
B2 (FBLN5 207-287) — binding (FBN1 31-489 (Homo sapiens, UniProt P35555); ELISA): binds
Epo-Fc Fc fusion, hinge-CH2-CH3, glycosylated (Mus musculus) — reticulocyte count (Fcgrt heavy chain (Mus musculus, UniProt Q61559); reticulocyte count, agonist; suckling mice; apparent, intragastric, dose response): 0.1 µg/animal
